Results pooled from the literature.
Compare with care: the assays were run in different laboratories.
ADRB1: Beta-1 adrenergic receptor (ADRB1, Homo sapiens, UniProt P08588)
Sequence of UniProt P08588 (whole entry, looked up): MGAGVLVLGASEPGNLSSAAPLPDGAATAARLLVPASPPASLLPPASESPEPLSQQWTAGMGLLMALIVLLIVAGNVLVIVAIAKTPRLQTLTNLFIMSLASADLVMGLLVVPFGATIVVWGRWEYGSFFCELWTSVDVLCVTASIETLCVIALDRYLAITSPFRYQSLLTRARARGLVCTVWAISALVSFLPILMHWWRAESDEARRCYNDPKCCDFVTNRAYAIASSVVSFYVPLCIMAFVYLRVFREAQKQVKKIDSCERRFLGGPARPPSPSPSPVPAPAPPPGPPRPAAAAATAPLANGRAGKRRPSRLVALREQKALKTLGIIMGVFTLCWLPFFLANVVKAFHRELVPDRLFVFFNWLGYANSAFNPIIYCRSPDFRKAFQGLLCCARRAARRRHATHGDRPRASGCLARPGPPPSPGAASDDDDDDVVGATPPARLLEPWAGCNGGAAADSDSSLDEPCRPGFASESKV
Eukaryotic initiation factor 4A-III: Eukaryotic initiation factor 4A-III (Homo sapiens, UniProt P38919)
Sequence of UniProt P38919 (whole entry, looked up): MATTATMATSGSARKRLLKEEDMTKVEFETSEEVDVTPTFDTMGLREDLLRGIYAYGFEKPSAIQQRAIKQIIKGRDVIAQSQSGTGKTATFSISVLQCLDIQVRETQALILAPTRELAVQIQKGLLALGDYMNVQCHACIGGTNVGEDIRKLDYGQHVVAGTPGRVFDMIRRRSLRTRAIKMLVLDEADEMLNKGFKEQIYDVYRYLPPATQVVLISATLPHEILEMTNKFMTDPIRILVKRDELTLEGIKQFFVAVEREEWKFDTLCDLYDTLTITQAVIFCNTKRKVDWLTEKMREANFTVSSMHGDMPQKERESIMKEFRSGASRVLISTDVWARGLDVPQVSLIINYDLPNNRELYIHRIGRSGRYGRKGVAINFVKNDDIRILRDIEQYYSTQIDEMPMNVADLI
Sequence of UniProt Q9UQM7 (whole entry, looked up): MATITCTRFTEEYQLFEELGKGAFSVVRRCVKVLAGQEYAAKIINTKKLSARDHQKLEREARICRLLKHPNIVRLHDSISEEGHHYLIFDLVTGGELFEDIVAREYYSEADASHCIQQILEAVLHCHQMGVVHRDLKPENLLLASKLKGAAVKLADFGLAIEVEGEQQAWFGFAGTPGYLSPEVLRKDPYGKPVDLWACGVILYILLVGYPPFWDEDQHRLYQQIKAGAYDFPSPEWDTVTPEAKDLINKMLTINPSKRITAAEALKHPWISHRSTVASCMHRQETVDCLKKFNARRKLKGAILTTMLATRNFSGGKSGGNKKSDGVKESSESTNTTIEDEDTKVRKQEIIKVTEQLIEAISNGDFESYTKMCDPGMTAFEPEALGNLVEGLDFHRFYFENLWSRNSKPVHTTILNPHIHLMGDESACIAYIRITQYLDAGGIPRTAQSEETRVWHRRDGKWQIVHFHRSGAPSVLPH
Sequence of UniProt P9WI81 (whole entry, looked up): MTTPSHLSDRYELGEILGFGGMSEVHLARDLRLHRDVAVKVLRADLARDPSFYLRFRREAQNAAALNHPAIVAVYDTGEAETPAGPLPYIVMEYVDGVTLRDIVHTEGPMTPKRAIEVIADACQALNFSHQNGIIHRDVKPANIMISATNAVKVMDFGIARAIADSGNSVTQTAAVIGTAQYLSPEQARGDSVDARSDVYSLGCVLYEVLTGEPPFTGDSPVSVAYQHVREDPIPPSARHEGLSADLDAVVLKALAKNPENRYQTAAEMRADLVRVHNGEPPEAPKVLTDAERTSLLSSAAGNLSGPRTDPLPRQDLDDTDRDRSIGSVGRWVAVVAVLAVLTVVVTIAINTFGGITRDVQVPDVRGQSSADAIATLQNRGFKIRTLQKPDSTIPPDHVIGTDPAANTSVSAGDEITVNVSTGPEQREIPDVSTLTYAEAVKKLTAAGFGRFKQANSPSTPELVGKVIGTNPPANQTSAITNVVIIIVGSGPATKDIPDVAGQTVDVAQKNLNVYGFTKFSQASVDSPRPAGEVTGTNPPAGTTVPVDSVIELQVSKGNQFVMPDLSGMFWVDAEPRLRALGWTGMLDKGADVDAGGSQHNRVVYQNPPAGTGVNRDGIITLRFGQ
Sequence of UniProt P31751 (whole entry, looked up): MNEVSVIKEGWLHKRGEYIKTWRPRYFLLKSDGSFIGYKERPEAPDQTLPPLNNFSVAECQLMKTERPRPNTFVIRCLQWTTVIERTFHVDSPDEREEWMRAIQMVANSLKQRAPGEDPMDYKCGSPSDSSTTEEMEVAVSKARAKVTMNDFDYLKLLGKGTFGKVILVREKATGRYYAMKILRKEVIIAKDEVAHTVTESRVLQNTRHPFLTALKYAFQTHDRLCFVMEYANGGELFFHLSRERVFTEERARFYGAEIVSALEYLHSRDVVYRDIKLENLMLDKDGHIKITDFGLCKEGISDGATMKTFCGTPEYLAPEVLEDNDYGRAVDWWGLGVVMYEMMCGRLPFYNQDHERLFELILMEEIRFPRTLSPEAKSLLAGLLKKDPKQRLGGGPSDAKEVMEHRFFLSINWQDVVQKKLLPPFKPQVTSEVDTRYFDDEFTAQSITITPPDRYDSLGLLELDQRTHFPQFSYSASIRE
Sequence of UniProt P62344 (whole entry, looked up): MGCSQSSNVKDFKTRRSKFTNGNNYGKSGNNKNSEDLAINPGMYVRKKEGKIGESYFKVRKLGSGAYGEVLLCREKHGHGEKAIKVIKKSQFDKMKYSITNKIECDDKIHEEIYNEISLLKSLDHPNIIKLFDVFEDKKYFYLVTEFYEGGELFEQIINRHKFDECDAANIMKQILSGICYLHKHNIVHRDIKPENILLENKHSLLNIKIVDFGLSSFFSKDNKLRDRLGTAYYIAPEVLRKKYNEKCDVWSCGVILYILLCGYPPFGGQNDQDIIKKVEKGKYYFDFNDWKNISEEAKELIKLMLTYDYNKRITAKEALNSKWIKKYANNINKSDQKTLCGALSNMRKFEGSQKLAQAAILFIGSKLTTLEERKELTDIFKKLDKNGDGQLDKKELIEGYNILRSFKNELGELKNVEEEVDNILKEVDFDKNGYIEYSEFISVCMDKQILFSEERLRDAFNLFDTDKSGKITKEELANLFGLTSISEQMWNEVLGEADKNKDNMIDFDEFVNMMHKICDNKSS

Cc1ccc(CNCCc2c[nH]c3ccccc23)cc1  IC50 (ADRB1; antagonist): ≥ 100 µM
COc1ccc([C@@]23Oc4cc(OC)cc(OC)c4[C@]2(O)[C@@H](O)C[C@H]3c2ccccc2)cc1  fluorescence polarization change (Eukaryotic initiation factor 4A-III; RNA clamping, fluorescence polarization; concentration not given, mean of two replicates, added: FAM-labelled poly r(AG)8 RNA): 21.9 mP
COc1cc([C@@H]2OC[C@@H]3[C@H]2CO[C@H]3c2cc(OC)c(O[C@@H]3O[C@H](CO)[C@@H](O)[C@H](O)[C@H]3O)c(OC)c2)cc(OC)c1O[C@@H]1O[C@H](CO)[C@@H](O)[C@H](O)[C@H]1O  inhibition (Calcium/calmodulin-dependent protein kinase type II subunit alpha (CAMK2A, Homo sapiens, UniProt Q9UQM7); enzyme activity, inhibitor; 10 µM): 18%
O=c1nc(-c2ccccn2)sc2ccccc12  remaining binding (Serine/threonine-protein kinase PknB (pknB, Mycobacterium tuberculosis, UniProt P9WI81); cell-free assay, competition with immobilised ligand; 1 µM): 88%
COC(=O)[C@@H]1[C@@H](O)[C@@]2(O)c3c(OC)cc(OC)cc3O[C@@]2(c2ccc(Br)cc2)[C@H]1c1ccccc1  fluorescence polarization change (Eukaryotic initiation factor 4A-III; RNA clamping, fluorescence polarization; concentration not given, mean of two replicates, added: FAM-labelled poly r(AG)8 RNA): 13 mP
C=CC(=O)Nc1ccc2[nH]c(=O)n(C3CCN(Cc4ccc(-c5ccc6c(c5)NC(=O)CO6)cc4)CC3)c2c1  IC50 (RAC-beta serine/threonine-protein kinase (AKT2, Homo sapiens, UniProt P31751); target engagement in cells, BRET): 8.3 µM
CC(Cc1ccncc1)NCc1ccc(OCC(=O)N2CCOCC2)cc1 (stereo not drawn)  IC50 (ADRB1; antagonist): 11.2 µM
CN(C)C(=O)Cn1cc(-c2nc([C@@](C)(c3ccc(-c4cnc(N)nc4)cc3)C3CC3)no2)cn1  remaining binding (Calcium-dependent protein kinase 1 (CDPK1, Plasmodium falciparum, UniProt P62344); cell-free assay, competition with immobilised ligand; 1 µM): 58%
Clc1ccccc1COc1cccc(N2CCNCC2)c1  IC50 (ADRB1; antagonist): 8.91 µM

For quick reference, copied from above:
Cc1ccc(CNCCc2c[nH]c3ccccc23)cc1  IC50 (ADRB1; antagonist): ≥ 100 µM
